Published values collected from several papers.
Numbered parts are unrelated; each lists some results of a single study.

Block 1 — technique: RNA Bind-n-Seq; form: RNA; matrix: in vitro; tested at: 365 nM; reference: no-protein control; reading: higher = stronger binding
Target: RNA binding protein fox-1 homolog 2, RRM domain, GST-SBP tag (RBFOX2, Homo sapiens, UniProt O43251-10, residues 100-194)
Setting: natural RNA segment, single round, ends assumed
Target sequence (chain): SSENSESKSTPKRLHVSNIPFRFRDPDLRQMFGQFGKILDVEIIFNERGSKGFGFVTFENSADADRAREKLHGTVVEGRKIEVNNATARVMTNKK
`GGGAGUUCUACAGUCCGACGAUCUGUAAUGUCAGCUGGCAUCAUACAAAGAGCAGGAGAAGCAAACACCCAGAACUCUUUUGCUGGUCAGAGAUUCCCUGAGUGUCUGUCCUCACCCAAGCCUGCUCUGUGUCUGGAAUUCUCGGGUGCCAA` — result for “RBNS enrichment (R)”: 0.262.
`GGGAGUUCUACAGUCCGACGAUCAAGUUCCAGAGGGCUGACCCUCUCUGCAAAACUCUCCCCUGUCCUCUAGACCCCACCCUGGGUGUAUGUGAGUGUGCAAGGGAAGGUGUUGCAUCCCCAGGGGCUGCCGCUGGAAUUCUCGGGUGCCAA`: “RBNS enrichment (R)” 0.249.
`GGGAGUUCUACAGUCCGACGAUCGUUUUAAAUGCAGCUUUCUGUAGAGAUUCUACCUGCAGUCUGUUCUCUCUUGGGGUUCCACACCCAUUUCUUGCCAGCAGCUCCCAGUGAUGCUGUGUUUUGUAUGUUAGUGGAAUUCUCGGGUGCCAA`: “RBNS enrichment (R)” 0.592.
`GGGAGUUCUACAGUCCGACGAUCCCCUGUGCACCUUUGGGCUGCCCUGGCCCCCACUCUCCCGGGCCGCCCACCACAGGCUCUUAAUGGGGCCGGGUCAGUCCUACAUGUGAGAUGGGUUAGGGCAAGUCUUUUGGAAUUCUCGGGUGCCAA` — result for “RBNS enrichment (R)”: 0.546.
`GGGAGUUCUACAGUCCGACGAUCUUCUAUUAUAACUGCAUAGUAAUAGGGCCCUUAGCUCUCCCGUAGUCAGCGCAGUUUAGCAGUUAAAAGUGUAUUUUUGUUUAAUCAAACAAUAAUAAAGAGAGAUUUGUUGGAAUUCUCGGGUGCCAA` — result for “RBNS enrichment (R)”: 0.485.
For `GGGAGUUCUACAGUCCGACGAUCCAGACUCCUCUGACCUGGAUGCGGUCACAUCCACCUUUAAGAUUGUCAGUGCAUACUCCUUCCUGACGAUCCCCUGGGGCAAGCUGCCGACAGUGGCGUAAACAGGAGACUGGAAUUCUCGGGUGCCAA`, “RBNS enrichment (R)” read 0.374.

Block 2 — technique: RNA Bind-n-Seq; form: RNA; matrix: in vitro; tested at: 200 nM; setting: whole 134-nt RNA, ends assumed; together with: 150 mM LiCl; reference: input library; reading: higher = stronger binding; library: 7-deaza-guanosine replaces G
Target: Ras GTPase-activating protein-binding protein 1, full length (G3BP1, Homo sapiens, UniProt Q13283)
Chain of UniProt Q13283 (whole entry, looked up): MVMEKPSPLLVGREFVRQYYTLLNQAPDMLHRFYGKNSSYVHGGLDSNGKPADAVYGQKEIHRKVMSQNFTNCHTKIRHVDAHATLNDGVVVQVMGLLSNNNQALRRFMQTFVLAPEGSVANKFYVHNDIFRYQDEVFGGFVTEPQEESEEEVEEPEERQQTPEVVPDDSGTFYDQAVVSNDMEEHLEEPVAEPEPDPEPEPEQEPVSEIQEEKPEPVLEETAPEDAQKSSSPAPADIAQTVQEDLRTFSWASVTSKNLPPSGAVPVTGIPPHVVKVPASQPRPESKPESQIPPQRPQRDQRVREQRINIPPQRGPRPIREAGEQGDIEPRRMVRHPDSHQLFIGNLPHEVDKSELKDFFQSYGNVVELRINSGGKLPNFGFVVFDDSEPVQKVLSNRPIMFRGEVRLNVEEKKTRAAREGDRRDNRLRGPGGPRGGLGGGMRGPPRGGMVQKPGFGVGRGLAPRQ
`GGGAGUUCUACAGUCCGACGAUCCCUGUGCUACACAUCGUAUGUACCGAAUCGGCCCCCCGGGCCCCCCGGGGCCCCCCGGGGAAAGUAUUAUGUUACGCCGUUCGGAUCUGCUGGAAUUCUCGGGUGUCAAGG` has a log2 enrichment of -2.08.
`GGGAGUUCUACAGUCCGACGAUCUCCUCAAGUCCUGUGCUACACAUCGUAUGUACCGAAUCGGCGGGCGGCGGGAAAGUAUUAUGUUACGCCGUUCGGAUCUGCACUUCCAGCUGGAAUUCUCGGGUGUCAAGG` gave a log2 enrichment of 1.16.
`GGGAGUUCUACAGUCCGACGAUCCACAGACAACACGCACACACACAGACACAGAGGGAAGGGGUUGGGAUGGGGACAGGGUGCACAGCAGGGCGGGGUAGGACCCCAGCCCCUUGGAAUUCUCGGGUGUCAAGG` gave a log2 enrichment of -0.235.
The log2 enrichment of `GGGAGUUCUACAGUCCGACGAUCGCAGGAAGUAAAAACAAAUGGAAAUGCAAAGGAUAGUGGCAGGGGUGGGGGUUGCUAAGGAAAGGGUGGGAUGGGAGUGGGUAAAGAGUUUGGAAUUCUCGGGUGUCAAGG` is reported as 0.288.
`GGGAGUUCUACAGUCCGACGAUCCACAGACAACACGCACCCACACAGACACAGAGGGAAGGGGUUGGGAUGGGGACAGGGUGCACAGCAGAGCGGGGUAGGACCCCAGCCCCUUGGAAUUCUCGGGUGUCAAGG` has a log2 enrichment of 0.228.

Block 3 — technique: protein-binding microarray; form: double-stranded DNA, one strand shown; matrix: in vitro; tested at: not given; reading: higher = stronger binding
Target: Protein C-ets-1 (ETS1, Homo sapiens, UniProt P14921, residues 1-441, K379A, full length assumed)
Setting: k-mer, scored over probes, only values ≥0.25
Target sequence (chain): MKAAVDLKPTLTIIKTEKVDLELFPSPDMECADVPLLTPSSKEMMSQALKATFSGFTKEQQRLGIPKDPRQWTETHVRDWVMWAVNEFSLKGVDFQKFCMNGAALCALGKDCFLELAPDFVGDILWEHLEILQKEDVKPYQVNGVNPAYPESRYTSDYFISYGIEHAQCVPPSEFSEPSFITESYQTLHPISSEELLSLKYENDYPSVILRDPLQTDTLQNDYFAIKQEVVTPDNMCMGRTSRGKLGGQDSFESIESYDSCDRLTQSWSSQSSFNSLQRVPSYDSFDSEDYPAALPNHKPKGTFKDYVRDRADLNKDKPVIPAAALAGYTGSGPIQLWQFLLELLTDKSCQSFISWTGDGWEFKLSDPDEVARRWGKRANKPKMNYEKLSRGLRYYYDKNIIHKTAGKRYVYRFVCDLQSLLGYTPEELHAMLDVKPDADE
`AATGTACT` gave an E-score of 0.259.
The E-score of `CACATATA` is reported as 0.324.
For `CCCCGGTA`, the E-score was 0.441.
The E-score of `CCGGTCAA` is reported as 0.362.
The E-score of `TAACGTTA` is reported as 0.281.
With `AATATATA` the E-score was 0.257.
`TGACAACA` has an E-score of 0.285.
`GCGACATA` has an E-score of 0.28.

Further values, each from its own experiment
With `PhoQ, residues 284 288 289 292 302 303 TNASYF` the fold induction was 8.1 (PhoP, residues 12 14 15 18 19 SQCLL (Escherichia coli, UniProt P23836); Sort-seq, refers to: YFP reporter; E. coli; PhoQ-PhoP variant library, together with: 10 µM Mg2+; reference: high Mg2+ state, higher = stronger signaling).

For quick reference, copied from above (block 1):
For `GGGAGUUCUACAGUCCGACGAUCCAGACUCCUCUGACCUGGAUGCGGUCACAUCCACCUUUAAGAUUGUCAGUGCAUACUCCUUCCUGACGAUCCCCUGGGGCAAGCUGCCGACAGUGGCGUAAACAGGAGACUGGAAUUCUCGGGUGCCAA`, “RBNS enrichment (R)” read 0.374.
`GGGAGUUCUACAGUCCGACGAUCAAGUUCCAGAGGGCUGACCCUCUCUGCAAAACUCUCCCCUGUCCUCUAGACCCCACCCUGGGUGUAUGUGAGUGUGCAAGGGAAGGUGUUGCAUCCCCAGGGGCUGCCGCUGGAAUUCUCGGGUGCCAA`: “RBNS enrichment (R)” 0.249.
